Assay results pooled from the literature.
Parts stem from different laboratories: compare values within a part only.
Chain of UniProt P48729 (whole entry, looked up): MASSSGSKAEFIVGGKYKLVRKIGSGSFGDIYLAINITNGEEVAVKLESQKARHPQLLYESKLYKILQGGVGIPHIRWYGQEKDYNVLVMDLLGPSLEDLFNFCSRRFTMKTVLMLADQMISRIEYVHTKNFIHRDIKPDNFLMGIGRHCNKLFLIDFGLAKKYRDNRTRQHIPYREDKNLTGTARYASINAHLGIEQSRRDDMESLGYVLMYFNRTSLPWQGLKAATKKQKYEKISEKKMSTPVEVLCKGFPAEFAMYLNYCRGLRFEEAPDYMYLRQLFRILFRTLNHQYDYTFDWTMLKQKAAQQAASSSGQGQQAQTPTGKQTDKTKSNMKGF
Chain of UniProt Q9H2X6 (whole entry, looked up): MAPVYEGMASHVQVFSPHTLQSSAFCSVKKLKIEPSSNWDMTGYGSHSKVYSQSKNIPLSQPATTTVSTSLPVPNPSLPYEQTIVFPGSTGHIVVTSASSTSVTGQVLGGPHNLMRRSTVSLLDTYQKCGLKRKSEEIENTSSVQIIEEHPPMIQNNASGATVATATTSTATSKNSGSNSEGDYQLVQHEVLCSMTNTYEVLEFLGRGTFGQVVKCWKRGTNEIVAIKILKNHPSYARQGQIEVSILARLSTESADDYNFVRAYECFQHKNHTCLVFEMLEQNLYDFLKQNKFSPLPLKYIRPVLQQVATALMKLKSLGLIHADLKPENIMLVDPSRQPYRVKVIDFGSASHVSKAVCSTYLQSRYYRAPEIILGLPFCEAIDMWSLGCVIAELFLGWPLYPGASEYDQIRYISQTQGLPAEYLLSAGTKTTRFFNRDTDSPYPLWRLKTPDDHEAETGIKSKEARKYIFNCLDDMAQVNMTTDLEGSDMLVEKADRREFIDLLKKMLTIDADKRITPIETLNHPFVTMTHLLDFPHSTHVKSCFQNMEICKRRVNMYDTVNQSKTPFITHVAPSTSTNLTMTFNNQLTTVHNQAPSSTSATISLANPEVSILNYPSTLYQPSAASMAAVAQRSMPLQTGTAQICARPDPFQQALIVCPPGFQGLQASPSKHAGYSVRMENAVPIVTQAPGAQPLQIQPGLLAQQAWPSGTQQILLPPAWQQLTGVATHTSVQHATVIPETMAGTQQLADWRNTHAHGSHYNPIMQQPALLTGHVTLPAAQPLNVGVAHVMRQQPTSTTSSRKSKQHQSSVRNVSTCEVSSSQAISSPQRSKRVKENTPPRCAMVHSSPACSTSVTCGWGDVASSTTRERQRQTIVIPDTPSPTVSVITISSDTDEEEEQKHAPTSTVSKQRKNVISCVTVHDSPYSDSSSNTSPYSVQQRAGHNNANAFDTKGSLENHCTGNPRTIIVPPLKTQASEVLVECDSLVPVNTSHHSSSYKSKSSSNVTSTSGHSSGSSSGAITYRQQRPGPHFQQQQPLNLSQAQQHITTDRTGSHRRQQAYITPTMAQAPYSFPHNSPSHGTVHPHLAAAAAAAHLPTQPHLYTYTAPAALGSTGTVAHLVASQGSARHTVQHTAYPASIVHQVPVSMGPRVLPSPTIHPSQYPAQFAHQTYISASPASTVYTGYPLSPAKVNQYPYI
Chain of UniProt Q9C098 (whole entry, looked up): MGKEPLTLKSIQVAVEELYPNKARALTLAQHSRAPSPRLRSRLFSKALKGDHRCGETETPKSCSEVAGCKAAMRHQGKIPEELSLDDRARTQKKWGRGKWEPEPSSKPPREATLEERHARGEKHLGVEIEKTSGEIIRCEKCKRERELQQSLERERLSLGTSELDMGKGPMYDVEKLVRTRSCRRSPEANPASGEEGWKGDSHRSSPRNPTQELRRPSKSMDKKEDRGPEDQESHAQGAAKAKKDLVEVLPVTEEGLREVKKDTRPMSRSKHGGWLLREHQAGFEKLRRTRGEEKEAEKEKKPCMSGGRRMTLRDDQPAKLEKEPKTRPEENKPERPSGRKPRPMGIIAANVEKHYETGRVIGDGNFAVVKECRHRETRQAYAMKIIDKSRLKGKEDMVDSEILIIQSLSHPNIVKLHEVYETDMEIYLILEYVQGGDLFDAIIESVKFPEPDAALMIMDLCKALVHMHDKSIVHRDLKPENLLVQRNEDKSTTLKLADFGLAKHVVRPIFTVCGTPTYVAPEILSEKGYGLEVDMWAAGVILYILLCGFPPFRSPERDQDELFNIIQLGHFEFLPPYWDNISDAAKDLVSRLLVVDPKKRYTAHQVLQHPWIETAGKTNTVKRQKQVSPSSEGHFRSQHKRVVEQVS
Chain of UniProt P31749 (whole entry, looked up): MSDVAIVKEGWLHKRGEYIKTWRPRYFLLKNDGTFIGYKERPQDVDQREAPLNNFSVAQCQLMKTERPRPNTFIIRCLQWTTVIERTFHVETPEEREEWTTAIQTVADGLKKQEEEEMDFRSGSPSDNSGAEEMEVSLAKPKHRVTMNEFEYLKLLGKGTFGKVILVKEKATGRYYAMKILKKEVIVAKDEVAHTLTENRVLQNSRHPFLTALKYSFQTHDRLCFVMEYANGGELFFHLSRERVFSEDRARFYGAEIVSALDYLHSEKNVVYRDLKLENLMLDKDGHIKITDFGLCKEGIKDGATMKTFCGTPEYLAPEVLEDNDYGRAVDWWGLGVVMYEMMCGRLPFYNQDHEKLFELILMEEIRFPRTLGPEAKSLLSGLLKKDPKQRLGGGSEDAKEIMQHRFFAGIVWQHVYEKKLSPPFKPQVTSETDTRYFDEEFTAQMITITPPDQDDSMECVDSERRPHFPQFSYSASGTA
Chain of UniProt Q7L7X3 (whole entry, looked up): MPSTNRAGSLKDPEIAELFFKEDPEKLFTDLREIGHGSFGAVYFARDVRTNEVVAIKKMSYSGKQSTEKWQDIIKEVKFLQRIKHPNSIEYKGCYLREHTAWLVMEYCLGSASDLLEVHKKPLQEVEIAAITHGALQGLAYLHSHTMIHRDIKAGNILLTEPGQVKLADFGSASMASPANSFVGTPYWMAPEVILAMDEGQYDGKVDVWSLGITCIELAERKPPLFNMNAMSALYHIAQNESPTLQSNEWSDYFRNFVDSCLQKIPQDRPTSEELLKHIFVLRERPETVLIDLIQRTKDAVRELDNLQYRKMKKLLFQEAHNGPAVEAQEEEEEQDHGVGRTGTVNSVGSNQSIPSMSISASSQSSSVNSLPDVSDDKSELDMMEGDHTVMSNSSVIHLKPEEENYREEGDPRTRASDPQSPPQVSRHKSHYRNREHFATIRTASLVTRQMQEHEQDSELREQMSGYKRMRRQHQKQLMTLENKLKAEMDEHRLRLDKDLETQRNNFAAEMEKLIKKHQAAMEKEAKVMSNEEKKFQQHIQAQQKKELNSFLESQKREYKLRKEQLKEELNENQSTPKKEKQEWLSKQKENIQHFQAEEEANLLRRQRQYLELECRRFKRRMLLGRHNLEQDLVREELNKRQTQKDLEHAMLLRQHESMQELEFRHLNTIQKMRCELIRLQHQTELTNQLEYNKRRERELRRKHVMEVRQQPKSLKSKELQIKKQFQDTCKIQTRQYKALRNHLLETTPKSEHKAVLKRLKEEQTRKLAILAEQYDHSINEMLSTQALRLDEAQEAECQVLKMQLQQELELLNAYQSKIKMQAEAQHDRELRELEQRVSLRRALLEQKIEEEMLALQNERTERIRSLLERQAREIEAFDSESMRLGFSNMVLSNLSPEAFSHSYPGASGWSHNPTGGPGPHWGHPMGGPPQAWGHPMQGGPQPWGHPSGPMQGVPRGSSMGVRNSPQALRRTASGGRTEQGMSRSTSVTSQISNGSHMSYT
Chain of UniProt Q9UBE8 (whole entry, looked up): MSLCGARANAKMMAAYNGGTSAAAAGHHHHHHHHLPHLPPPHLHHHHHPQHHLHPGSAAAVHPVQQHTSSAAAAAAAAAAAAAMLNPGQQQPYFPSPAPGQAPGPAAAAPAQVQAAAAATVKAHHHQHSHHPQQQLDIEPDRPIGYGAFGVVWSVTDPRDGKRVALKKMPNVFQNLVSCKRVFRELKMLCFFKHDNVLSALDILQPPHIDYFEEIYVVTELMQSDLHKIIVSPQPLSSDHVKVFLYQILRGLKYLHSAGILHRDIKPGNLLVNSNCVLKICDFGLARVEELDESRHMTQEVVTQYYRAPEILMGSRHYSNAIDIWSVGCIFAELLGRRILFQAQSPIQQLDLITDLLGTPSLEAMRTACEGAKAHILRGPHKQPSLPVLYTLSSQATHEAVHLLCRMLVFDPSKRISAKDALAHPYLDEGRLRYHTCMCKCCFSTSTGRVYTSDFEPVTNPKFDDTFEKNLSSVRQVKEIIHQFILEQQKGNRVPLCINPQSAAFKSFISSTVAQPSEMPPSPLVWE

Series 1 — effect on: cell-free assay; technique: competition with immobilised ligand; concentration: 1 µM; quantity: remaining binding
SMILES: C[C@@]1(Cc2ccc(C#N)cc2)C(=O)N(c2cc(Cl)cc(Cl)c2)c2ncc(C(=O)NC3(c4nc(C5CCC5)no4)CC3)n21
CLK4 (Homo sapiens, UniProt Q9HAZ1): 97%
RIPK1 (Homo sapiens, UniProt Q13546): 100%
NLK (Homo sapiens, UniProt Q9UBE8): 100%
PLK2 (Homo sapiens, UniProt Q9NYY3): 98%
DCLK3 (Homo sapiens, UniProt Q9C098): 88%
TAOK1 (Homo sapiens, UniProt Q7L7X3): 97%
TNK2 (Homo sapiens, UniProt Q07912): 86%
HIPK2 (Homo sapiens, UniProt Q9H2X6): 100%
Ribosomal protein S6 kinase alpha-3, N-terminal kinase domain (RPS6KA3, Homo sapiens, UniProt P51812): 100%
AKT1 (Homo sapiens, UniProt P31749): 100%
CSNK1A1 (Homo sapiens, UniProt P48729): 100%
EGFR (Homo sapiens, UniProt P00533, G719S): 99%

Series 2 — host: human; sample: microsomes or S9; concentration: 2 µM; time: 0.5 h; quantity: remaining compound
O=C(C1c2ccccc2C(=O)N2CCc3ccccc3C12)N1CCC(Cc2ccccc2)CC1 (centres unmarked): 35.9%
COc1nc(OC)c(C(C)C)c(-c2nnn(C)n2)n1: 46.3%
OCCC1(CNc2cnc3cc(Cl)c(Cl)cc3n2)CCOC1 (centres unmarked): 33.1%
CC(C)c1nc(-c2cc3ccccc3nc2O)no1: 39.7%
COc1ccc(CC(=O)NCc2csc(C)n2)cc1: 99.8%
Cc1csc(C2=C(N)N(C(C)CCc3ccco3)CC2=O)n1 (centres unmarked): 24.3%
COc1cc(C(=O)Nc2ncc3c(n2)CC(c2ccc(C)cc2)CC3=O)cc(OC)c1OC (centres unmarked): 8.37%
COC(=O)c1nccnc1C1=NC(C)(C(C)C)C(=O)N1 (centres unmarked): 68.3%
Cn1cc(S(=O)(=O)N2CCc3sccc3C2c2cccs2)c(=O)n(C)c1=O (centres unmarked): 4.4%
COC(=O)c1c(C)[nH]c(C(=O)CN2CCCC2c2nc3ccccc3s2)c1C (centres unmarked): 0.505%
COC(=O)c1ccc(-c2ccccc2NS(C)(=O)=O)s1: 64%
[O-][S+](CCc1ccccc1)Cc1c(Cl)cccc1Cl (centres unmarked): 0.772%
CC(C)c1nc(OCC(=O)O)c(C#N)c2c1COC(C)(C)C2: 68.7%
CC(=O)Nc1ccccc1C(c1ccc(C)o1)c1ccc(C)o1: 33.4%

Series 3 — effect on: enzyme activity; action: inhibitor; concentration: 0.5 µM; relative to: control; quantity: remaining activity
Target: Fibroblast growth factor receptor 4 (FGFR4, Homo sapiens, UniProt P22455)
Chain of UniProt P22455 (whole entry, looked up): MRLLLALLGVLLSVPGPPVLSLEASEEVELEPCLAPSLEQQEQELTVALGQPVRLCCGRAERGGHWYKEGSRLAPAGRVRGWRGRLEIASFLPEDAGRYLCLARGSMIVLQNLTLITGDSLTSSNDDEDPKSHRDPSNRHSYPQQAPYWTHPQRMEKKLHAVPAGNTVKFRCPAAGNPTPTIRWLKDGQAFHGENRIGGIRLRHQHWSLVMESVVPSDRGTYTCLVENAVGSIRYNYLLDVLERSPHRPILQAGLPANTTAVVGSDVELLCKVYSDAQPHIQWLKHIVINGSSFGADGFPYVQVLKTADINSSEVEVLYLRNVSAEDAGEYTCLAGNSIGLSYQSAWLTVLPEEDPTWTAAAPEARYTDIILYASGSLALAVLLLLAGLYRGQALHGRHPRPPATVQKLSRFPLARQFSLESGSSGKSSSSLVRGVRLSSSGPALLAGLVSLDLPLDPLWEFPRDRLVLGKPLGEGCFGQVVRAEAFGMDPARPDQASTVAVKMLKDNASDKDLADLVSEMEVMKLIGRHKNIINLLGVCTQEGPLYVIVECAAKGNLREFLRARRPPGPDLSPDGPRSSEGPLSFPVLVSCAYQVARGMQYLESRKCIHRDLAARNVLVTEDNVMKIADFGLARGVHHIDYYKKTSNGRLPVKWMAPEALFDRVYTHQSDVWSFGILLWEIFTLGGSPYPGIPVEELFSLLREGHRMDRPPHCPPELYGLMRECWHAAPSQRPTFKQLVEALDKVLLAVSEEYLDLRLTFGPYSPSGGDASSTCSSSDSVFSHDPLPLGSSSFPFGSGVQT
Cc1nc(Nc2ncc(C(=O)Nc3c(C)cccc3Cl)s2)cc(N2CCN(CCO)CC2)n1: 91.1%
COc1cc2ncnc(Nc3ccc(OCc4ccccc4)cc3)c2cc1OC: 106%
Nc1[nH]nc2nnc(-c3c(-c4ccccc4)nn4ccccc34)cc12: 104%
COc1cc2ncc(-c3ccccc3)nc2cc1OC: 78.7%
Cn1cc(/C=C2\C(=O)Nc3ccc(S(N)(=O)=O)cc32)c2ccccc21: 74.1%
CC(C)c1nn(-c2c(Cl)cccc2Cl)c2nc(Cc3ccc(OCCO)cc3)[nH]c(=O)c12: 91.5%
Cn1cnc2cc3c(Nc4cccc(Br)c4)ncnc3cc21: 94.1%
CCC(=O)Nc1ccc2ncnc(Nc3cccc(Br)c3)c2c1: 95.2%
O=C1NC(=O)/C(=C/c2ccc3nccnc3c2)S1: 98%
COc1ccc(Cl)cc1NC(=O)Nc1cc(C)nc2ccccc12: 102%
O=C(Nc1ccc(Cl)cc1)c1ccccc1NCc1ccncc1: 84.1%
CC(C)[C@H](CO)Nc1nc(Nc2cccc(Cl)c2)c2ncn(C(C)C)c2n1: 79%
CCOc1cc2ncnc(Nc3cccc(Br)c3)c2cc1OCC: 87.1%
C[S+]([O-])c1ccc(-c2nc(-c3ccncc3)c(-c3ccc(F)cc3)[nH]2)cc1 (centres unmarked): 73.8%
O=c1cc(N2CCOCC2)oc2c1ccc1ccccc12: 108%
CN(C)CCCn1cc(C2=C(c3c[nH]c4ccccc34)C(=O)NC2=O)c2ccccc21: 89%
CC(=O)O/N=C1/C(c2c(O)[nH]c3cc(Br)ccc23)=Nc2ccccc21: 82.6%
COc1cc2ncnc(N3CCN(C(=O)Nc4ccc(Oc5ccccc5)cc4)CC3)c2cc1OC: 99.7%
Cc1ccc(NC(=O)c2ccc(CN3CCN(C)CC3)cc2)cc1Nc1nccc(-c2cccnc2)n1: 96.3%
CCN1/C(=C/C(C)=O)Sc2ccc(OC)cc21: 92.3%
COc1ccc(-c2cnc3c(-c4ccsc4)cnn3c2)cc1: 89.2%
CS(=O)(=O)CCNCc1ccc(-c2ccc3ncnc(Nc4ccc(OCc5cccc(F)c5)c(Cl)c4)c3c2)o1: 96.6%

Single results of other studies — organism: Plasmodium berghei; cells: Huh-7; strain: GFP-expressing; concentration: 10 µM; time: 24 h; setting: liver stage
OCCOCCN1CCN(C2=Nc3ccccc3Sc3ccccc32)CC1
inhibition: 77.3%

NCCCC(O)(P(=O)(O)O)P(=O)(O)O
inhibition: 32%

Some of these lines once more (series 3):
COc1cc2ncnc(Nc3ccc(OCc4ccccc4)cc3)c2cc1OC: 106%
CC(=O)O/N=C1/C(c2c(O)[nH]c3cc(Br)ccc23)=Nc2ccccc21: 82.6%
Cn1cc(/C=C2\C(=O)Nc3ccc(S(N)(=O)=O)cc32)c2ccccc21: 74.1%
Cc1nc(Nc2ncc(C(=O)Nc3c(C)cccc3Cl)s2)cc(N2CCN(CCO)CC2)n1: 91.1%
CCN1/C(=C/C(C)=O)Sc2ccc(OC)cc21: 92.3%
